Experimental data of several laboratories.
Compare with care: the assays were run in different laboratories. Numbers after ± are the reported error. Converted amounts (≈) assume the structure as drawn.

Substance | test | test system | conditions | how to read | endpoint | result
CC1N=C(c2ccccc2F)c2cc(Nc3ccccc3)ccc2NC1=O (stereo not drawn) | shake flask | PBS | 24 h, pH 7.4 | – | solubility | 2.17 µM (≈ 0.78 µg/mL)
CC[C@H](C)[C@H](NC(=O)[C@@H](N)CCCNC(=N)N)C(=O)N[C@H](C(=O)N1CCC[C@H]1C(=O)N[C@@H](C)C(N)=O)C(C)C | – | human, plasma | intravenous, 5 mg/kg, single dose, healthy volunteers | – | MRT | 6 min
CC(=O)N[C@H](CCCCNC(=O)C(C)F)C(=O)N[C@@H](CS)C(=O)N[C@@H](CS)C(=O)N[C@@H](CCC(=O)O)C(=O)N[C@@H](Cc1c[nH]cn1)C(=O)N[C@H](Cc1ccccc1)C(=O)N[C@@H](CCCNC(=N)N)C(=O)N[C@@H](Cc1c[nH]c2ccccc12)C(=O)N[C@@H](CS)C(=O)N[C@@H](CCCNC(=N)N)C(=O)N1CCC[C@H]1C(=O)N[C@H](C(N)=O)C(C)C (stereo partly drawn) [fluorine-18 labelled] | – | C57BL/6 mouse male B16-F10 tumour, liver | intravenous, 2 h | – | tissue uptake | 0.78 ± 0.05 %ID/g
CCOC(=O)c1cncn1C1(c2ccccc2)CC1 | serum corticosterone, inhibitor | Sprague-Dawley rat | intravenous, 15 min, 50% reduction, with: ACTH1-24 | – | ID50 | 2 ± 0.2 mg/kg
COc1ccc(S(=O)(=O)N2CCCCC2)cc1C | – | Opn4 knockout and wild-type mice | dose not given, rod/cone driven, low light | – | pupillary light reflex | no effect
CCCCCOc1ccc(-c2cc(-c3ccc(C(=O)N[C@H]4C[C@@H](O)[C@@H](O)NC(=O)[C@@H]5[C@@H](O)[C@@H](C)CN5C(=O)[C@H]([C@H](O)CC(N)=O)NC(=O)[C@H]([C@H](O)[C@@H](O)c5ccc(O)c(OS(=O)(=O)O)c5)NC(=O)[C@@H]5C[C@@H](O)CN5C(=O)[C@H]([C@@H](C)O)NC4=O)cc3)no2)cc1 | – | preterm neonates, whole cohort, plasma | intravenous, 15 mg/kg/day, repeated dosing, mean | – | clearance | 0.575 mL/min/kg
CCCCCCCCCCCCCC[N+](C)(C)C | substrate depletion | human liver microsomes | 0.5 µM, 0 to 3 h, 37 °C, with: NADPH | – | intrinsic clearance | 0.088 mL/h/mg protein
O=S(=O)(O)C(F)(F)C(F)(F)C(F)(F)C(F)(F)C(F)(F)C(F)(F)F | LC-MS | C57BL/6J mouse male, plasma | drinking water, 2 mg/L each PFAS, 12 weeks | – | plasma concentration | 25600 ± 5800 ng/mL
CCCCCOc1ccc(-c2ccc(-c3ccc(C(=O)N[C@H]4C[C@@H](O)[C@@H](O)NC(=O)[C@@H]5[C@@H](O)[C@@H](C)CN5C(=O)[C@H]([C@@H](C)O)NC(=O)[C@H]([C@H](O)[C@@H](O)c5ccc(O)cc5)NC(=O)[C@@H]5C[C@@H](O)CN5C(=O)[C@H]([C@@H](C)O)NC4=O)cc3)cc2)cc1 | – | patients aged sample A to <sample B years, plasma | intravenous, loading 200 then 100 mg daily | – | AUC(0-24) steady state median | 75800 ng·h/mL
O[C@H]1CCCN[C@@H]1CCCn1cnc2c(Cl)c(Cl)ccc21 | – | human, plasma | oral, 300 mg, single dose, healthy volunteers | – | Tmax | 2.5 h
vancomycin | pseudoallergic reaction | male CBA mouse | intravenous, maximum tolerated dose, with: concanavalin A | baseline: control group | inflammation reaction index | 52.1%
O=C(O[C@@H]1Cc2c(O)cc(O)cc2O[C@@H]1c1cc(O)c(O)c(O)c1)c1cc(O)c(O)c(O)c1 | cell viability, MTT | mouse lung slices | 48 h | – | CC50 | > 500 µM
